{"data": "Results gathered from unrelated publications", "Ephx2": "Bifunctional epoxide hydrolase 2 (Ephx2, Mus musculus, UniProt P34914)", "Ephx2 N-terminal phosphatase domain": "Bifunctional epoxide hydrolase 2, N-terminal phosphatase domain (Ephx2, Mus musculus, UniProt P34914)", "chain of UniProt P34914 (whole entry, looked up)": "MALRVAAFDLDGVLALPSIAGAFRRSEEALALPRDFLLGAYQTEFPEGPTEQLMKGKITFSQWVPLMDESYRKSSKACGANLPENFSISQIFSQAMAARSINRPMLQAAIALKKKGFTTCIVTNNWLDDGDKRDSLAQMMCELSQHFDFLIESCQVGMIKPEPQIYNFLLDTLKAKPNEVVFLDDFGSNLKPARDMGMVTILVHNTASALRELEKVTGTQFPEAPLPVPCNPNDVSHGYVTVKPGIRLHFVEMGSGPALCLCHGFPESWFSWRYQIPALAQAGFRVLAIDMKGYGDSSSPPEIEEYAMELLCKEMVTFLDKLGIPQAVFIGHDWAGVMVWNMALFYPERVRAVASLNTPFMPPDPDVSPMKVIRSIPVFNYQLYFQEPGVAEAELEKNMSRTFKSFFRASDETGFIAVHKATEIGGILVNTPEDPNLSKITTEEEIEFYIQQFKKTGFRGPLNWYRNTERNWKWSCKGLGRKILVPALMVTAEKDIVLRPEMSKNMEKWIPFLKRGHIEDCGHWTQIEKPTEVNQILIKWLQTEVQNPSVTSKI"}
{"SMILES": "O=C(Nc1ccc(OC(F)(F)F)cc1)NC1CCN(C(=O)C2CC2)CC1", "target": "Ephx2", "test": "enzyme activity, inhibitor, fluorescence", "setting": "pH 7, with preincubation", "IC50 [nM]": 5.3}
{"SMILES": "CC(=O)N[C@@H](CSC/C=C(\\C)CC/C=C(\\C)CCC=C(C)C)C(=O)O", "target": "Ephx2 N-terminal phosphatase domain", "test": "N-terminal phosphatase activity", "system": "mouse", "setting": "10 min preincubation, with: AttoPhos 15 µM", "IC50 [nM]": 100000}
{"SMILES": "C[C@]12CC3CC(Nc4c(Nc5ccc(C(=O)N6CCC[C@H](C(=O)NCCCCC(=O)NO)C6)cc5)c(=O)c4=O)(C1)C[C@@](C)(C3)C2", "target": "Ephx2", "test": "enzyme activity, inhibitor, fluorescence", "IC50 [nM]": 4520}
{"SMILES": "O=C(Nc1ccc(O)c2ccccc12)NC1CCCCC1", "target": "Ephx2", "test": "enzyme activity, inhibitor, absorbance", "setting": "pH 7.4, with preincubation", "IC50 [nM]": 650}
{"SMILES": "NC(=O)c1cccc(-c2cc(OC(=O)NC3CCCCC3)ccc2O)c1", "target": "Ephx2", "test": "enzyme activity, inhibitor, fluorescence", "setting": "pH 7.4", "IC50 [nM]": 17800}
{"SMILES": "O=C(Nc1cccc(OC(F)(F)F)c1)N[C@H]1CC[C@H](Oc2ccc(C(=O)O)cc2)CC1", "target": "Ephx2", "test": "enzyme activity, inhibitor, fluorescence", "IC50 [nM]": 1.3}
{"SMILES": "C[C@]12C[C@@H]3C[C@](C)(C1)C[C@@](NC(=O)Nc1ccc(CN4CCC[C@H](C(=O)NCCCCCCC(=O)NO)C4)cc1F)(C3)C2", "target": "Ephx2", "test": "enzyme activity, inhibitor, fluorescence", "IC50 [nM]": 0.7}
{"SMILES": "N#Cc1ccc(C[C@H](NC(=O)OCC2c3ccccc3-c3ccccc32)C(=O)O)cc1", "target": "Ephx2 N-terminal phosphatase domain", "test": "N-terminal phosphatase activity", "system": "mouse", "setting": "10 min preincubation, with: AttoPhos 15 µM", "IC50 [nM]": 2300}
{"note": "Repeated from above:"}
{"SMILES": "C[C@]12CC3CC(Nc4c(Nc5ccc(C(=O)N6CCC[C@H](C(=O)NCCCCC(=O)NO)C6)cc5)c(=O)c4=O)(C1)C[C@@](C)(C3)C2", "target": "Ephx2", "test": "enzyme activity, inhibitor, fluorescence", "IC50 [nM]": 4520}
